{"data": "Published values gathered from unrelated publications", "note": "Numbered parts are unrelated; each lists some results of a single study.", "UniProt Q5XXA6, sequence (whole entry, unmodified, looked up)": "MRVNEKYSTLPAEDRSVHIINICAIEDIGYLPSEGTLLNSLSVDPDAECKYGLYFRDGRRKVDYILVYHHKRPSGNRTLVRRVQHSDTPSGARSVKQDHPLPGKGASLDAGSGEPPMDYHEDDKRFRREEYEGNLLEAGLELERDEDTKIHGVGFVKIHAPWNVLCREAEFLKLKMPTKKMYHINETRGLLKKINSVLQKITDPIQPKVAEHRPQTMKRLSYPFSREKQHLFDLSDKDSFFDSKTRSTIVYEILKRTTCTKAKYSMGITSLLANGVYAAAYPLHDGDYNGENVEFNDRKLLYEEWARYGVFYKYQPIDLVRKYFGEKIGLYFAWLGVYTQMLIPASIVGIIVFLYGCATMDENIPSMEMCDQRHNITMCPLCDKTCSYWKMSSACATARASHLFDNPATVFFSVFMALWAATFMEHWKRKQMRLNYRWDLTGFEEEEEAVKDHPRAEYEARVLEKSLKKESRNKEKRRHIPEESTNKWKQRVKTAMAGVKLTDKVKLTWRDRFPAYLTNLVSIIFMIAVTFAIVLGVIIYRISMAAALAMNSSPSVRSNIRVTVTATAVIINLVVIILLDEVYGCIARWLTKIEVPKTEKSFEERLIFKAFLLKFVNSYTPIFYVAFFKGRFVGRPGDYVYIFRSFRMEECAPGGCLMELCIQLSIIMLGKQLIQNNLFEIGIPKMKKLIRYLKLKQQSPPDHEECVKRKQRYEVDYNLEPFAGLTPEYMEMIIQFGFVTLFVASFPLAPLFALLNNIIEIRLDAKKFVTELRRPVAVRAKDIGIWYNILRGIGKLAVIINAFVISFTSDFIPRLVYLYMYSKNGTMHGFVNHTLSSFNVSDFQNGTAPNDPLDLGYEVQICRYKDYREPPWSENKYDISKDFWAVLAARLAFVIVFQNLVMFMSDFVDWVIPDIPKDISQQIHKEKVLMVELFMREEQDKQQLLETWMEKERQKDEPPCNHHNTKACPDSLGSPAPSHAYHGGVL", "UniProt O14730, sequence (whole entry, looked up)": "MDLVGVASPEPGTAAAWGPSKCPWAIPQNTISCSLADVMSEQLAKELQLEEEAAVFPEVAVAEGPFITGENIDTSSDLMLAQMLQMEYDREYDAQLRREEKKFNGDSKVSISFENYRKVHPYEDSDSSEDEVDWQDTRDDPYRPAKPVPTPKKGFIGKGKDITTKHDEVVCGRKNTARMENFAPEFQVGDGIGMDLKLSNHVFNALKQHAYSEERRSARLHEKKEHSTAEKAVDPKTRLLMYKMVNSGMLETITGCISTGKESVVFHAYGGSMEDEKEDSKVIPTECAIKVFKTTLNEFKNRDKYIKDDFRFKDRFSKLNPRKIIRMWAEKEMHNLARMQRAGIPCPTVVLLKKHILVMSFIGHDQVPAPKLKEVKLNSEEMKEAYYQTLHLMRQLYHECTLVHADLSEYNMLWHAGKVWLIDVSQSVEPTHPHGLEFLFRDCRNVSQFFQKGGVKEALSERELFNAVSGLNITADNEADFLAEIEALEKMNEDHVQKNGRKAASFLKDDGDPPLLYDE", "UniProt Q86UE8, sequence (whole entry, looked up)": "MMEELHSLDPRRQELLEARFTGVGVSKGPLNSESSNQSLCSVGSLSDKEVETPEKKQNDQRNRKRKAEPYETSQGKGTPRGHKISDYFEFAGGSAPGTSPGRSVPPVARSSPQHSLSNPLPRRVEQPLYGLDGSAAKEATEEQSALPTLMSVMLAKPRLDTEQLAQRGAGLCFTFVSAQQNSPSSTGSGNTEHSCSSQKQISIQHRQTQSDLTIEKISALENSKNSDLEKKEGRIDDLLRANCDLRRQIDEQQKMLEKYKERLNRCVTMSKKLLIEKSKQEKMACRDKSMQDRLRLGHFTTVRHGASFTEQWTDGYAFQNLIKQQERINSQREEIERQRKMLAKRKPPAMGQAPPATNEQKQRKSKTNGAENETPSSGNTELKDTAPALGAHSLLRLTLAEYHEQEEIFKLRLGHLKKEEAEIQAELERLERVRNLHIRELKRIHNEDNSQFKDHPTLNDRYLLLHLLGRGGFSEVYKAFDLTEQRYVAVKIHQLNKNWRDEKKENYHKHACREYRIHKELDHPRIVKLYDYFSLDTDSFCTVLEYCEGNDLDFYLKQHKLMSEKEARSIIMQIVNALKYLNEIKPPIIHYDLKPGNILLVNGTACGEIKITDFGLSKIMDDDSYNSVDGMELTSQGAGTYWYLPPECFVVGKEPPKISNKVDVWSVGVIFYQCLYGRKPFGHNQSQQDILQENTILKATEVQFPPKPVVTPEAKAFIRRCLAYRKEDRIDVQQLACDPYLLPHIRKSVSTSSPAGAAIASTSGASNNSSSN", "UniProt O95382, sequence (whole entry, looked up)": "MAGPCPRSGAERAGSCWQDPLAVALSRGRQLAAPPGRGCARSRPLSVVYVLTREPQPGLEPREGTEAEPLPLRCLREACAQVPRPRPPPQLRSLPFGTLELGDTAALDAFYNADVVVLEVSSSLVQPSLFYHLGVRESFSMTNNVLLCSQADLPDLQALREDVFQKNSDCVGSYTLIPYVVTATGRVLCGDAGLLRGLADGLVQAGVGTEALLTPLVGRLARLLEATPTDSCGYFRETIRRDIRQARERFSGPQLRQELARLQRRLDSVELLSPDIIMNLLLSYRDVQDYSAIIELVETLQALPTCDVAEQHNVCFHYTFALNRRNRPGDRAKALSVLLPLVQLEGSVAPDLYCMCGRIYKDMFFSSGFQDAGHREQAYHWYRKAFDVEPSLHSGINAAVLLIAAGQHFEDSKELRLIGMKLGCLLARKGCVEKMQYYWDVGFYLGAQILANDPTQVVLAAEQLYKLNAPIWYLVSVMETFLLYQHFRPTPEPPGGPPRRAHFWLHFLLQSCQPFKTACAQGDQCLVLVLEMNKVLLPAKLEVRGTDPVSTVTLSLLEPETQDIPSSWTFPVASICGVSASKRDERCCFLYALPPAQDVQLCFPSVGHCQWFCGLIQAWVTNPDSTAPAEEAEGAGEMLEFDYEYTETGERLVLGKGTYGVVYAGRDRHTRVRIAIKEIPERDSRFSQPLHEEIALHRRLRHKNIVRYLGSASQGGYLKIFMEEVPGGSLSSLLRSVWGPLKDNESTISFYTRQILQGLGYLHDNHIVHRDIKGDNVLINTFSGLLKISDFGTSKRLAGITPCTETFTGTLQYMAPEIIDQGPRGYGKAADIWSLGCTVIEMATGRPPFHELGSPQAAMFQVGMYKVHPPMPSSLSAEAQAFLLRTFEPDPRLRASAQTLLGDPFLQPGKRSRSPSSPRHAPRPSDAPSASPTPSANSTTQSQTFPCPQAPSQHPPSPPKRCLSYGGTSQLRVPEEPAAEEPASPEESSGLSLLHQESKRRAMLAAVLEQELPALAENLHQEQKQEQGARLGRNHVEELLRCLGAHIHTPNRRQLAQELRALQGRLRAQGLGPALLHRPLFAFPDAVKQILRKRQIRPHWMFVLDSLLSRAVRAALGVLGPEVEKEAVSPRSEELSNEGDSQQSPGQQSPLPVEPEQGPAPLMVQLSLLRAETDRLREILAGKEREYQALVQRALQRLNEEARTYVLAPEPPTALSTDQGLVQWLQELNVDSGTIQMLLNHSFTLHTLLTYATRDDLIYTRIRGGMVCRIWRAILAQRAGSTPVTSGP", "UniProt Q8IU85, sequence (whole entry, looked up)": "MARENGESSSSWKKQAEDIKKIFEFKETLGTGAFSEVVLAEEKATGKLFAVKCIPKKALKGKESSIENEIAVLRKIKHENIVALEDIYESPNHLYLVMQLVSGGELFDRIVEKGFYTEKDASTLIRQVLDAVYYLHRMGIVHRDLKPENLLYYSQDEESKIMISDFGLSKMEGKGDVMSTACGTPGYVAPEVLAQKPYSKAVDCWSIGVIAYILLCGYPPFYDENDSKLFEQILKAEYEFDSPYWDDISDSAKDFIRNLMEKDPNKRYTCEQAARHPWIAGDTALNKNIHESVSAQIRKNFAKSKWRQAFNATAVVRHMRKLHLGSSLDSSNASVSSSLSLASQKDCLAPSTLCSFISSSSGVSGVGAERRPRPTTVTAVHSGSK", "UniProt P27037, sequence (whole entry, looked up)": "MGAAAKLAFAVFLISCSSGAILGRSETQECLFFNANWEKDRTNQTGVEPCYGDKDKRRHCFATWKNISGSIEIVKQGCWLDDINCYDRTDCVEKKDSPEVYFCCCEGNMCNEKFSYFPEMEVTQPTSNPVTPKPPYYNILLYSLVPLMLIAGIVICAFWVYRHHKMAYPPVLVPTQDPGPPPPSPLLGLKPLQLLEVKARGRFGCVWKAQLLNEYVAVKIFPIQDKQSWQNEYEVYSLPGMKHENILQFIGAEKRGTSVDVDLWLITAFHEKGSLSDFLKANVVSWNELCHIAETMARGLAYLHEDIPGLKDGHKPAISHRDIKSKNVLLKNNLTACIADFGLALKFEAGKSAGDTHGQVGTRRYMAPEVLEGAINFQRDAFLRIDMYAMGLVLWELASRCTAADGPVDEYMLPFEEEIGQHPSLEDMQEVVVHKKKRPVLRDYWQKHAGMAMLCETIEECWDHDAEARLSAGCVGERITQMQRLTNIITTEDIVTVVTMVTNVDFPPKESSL", "UniProt P11802, sequence (whole entry, looked up)": "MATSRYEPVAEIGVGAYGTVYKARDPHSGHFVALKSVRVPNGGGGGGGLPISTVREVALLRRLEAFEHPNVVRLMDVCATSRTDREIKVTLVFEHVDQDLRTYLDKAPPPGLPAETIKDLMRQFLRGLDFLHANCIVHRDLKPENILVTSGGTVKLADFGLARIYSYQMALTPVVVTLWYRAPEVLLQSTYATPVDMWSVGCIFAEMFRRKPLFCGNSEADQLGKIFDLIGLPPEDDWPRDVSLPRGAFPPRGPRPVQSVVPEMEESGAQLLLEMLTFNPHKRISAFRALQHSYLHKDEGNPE"}
{"data": "Series 1", "Structure (SMILES)": "C[C@@H](c1cccc(C#N)c1)n1cc(Cl)cc(C(N)=O)c1=N", "concentration": "1 µM"}
{"target": "Receptor-type tyrosine-protein kinase FLT3 (FLT3, Homo sapiens, UniProt P36888, D835H)", "assay": "cell-free assay, competition with immobilised ligand", "remaining binding": "81%"}
{"target": "Cyclin-dependent kinase 13 (CDK13, Homo sapiens, UniProt Q14004)", "assay": "cell-free assay, competition with immobilised ligand", "remaining binding": "100%"}
{"target": "Tyrosine-protein kinase ABL1, phosphorylated (ABL1, Homo sapiens, UniProt P00519, E255K)", "assay": "binding, competition with immobilised ligand", "remaining binding": "82%"}
{"target": "Tyrosine-protein kinase ABL1, phosphorylated (ABL1, Homo sapiens, UniProt P00519, Q252H)", "assay": "cell-free assay, competition with immobilised ligand", "remaining binding": "78%"}
{"target": "Beta-adrenergic receptor kinase 1 (GRK2, Homo sapiens, UniProt P25098)", "assay": "cell-free assay, competition with immobilised ligand", "remaining binding": "78%"}
{"target": "Serine/threonine-protein kinase MRCK gamma (CDC42BPG, Homo sapiens, UniProt Q6DT37)", "assay": "competition binding", "remaining binding": "100%"}
{"target": "Calcium/calmodulin-dependent protein kinase type 1D (CAMK1D, Homo sapiens, UniProt Q8IU85)", "assay": "cell-free assay, competition with immobilised ligand", "remaining binding": "98%"}
{"target": "Ankyrin repeat and protein kinase domain-containing protein 1 (ANKK1, Homo sapiens, UniProt Q8NFD2)", "assay": "cell-free assay, competition with immobilised ligand", "remaining binding": "95%"}
{"target": "Mast/stem cell growth factor receptor Kit (KIT, Homo sapiens, UniProt P10721)", "assay": "cell-free assay, competition with immobilised ligand", "remaining binding": "93%"}
{"target": "Serine/threonine-protein kinase RIO3 (RIOK3, Homo sapiens, UniProt O14730)", "assay": "cell-free assay, competition with immobilised ligand", "remaining binding": "87%"}
{"target": "Testis-specific serine/threonine-protein kinase 1 (TSSK1B, Homo sapiens, UniProt Q9BXA7)", "assay": "cell-free assay, competition with immobilised ligand", "remaining binding": "100%"}
{"target": "Mitogen-activated protein kinase kinase kinase 11 (MAP3K11, Homo sapiens, UniProt Q16584)", "assay": "cell-free assay, competition with immobilised ligand", "remaining binding": "100%"}
{"target": "Serine/threonine-protein kinase Nek4 (NEK4, Homo sapiens, UniProt P51957)", "assay": "cell-free assay, competition with immobilised ligand", "remaining binding": "96%"}
{"target": "Activin receptor type-2A (ACVR2A, Homo sapiens, UniProt P27037)", "assay": "cell-free assay, competition with immobilised ligand", "remaining binding": "100%"}
{"target": "Mitogen-activated protein kinase kinase kinase 6 (MAP3K6, Homo sapiens, UniProt O95382)", "assay": "cell-free assay, competition with immobilised ligand", "remaining binding": "79%"}
{"target": "Cyclin-dependent kinase 4 (CDK4, Homo sapiens, UniProt P11802)", "assay": "cell-free assay, competition with immobilised ligand", "remaining binding": "99%"}
{"target": "Activin receptor type-1-like (ACVRL1, Homo sapiens, UniProt P37023)", "assay": "binding, competition with immobilised ligand", "remaining binding": "80%"}
{"target": "Serine/threonine-protein kinase MRCK beta (CDC42BPB, Homo sapiens, UniProt Q9Y5S2)", "assay": "cell-free assay, competition with immobilised ligand", "remaining binding": "100%"}
{"data": "Series 2", "SMILES": "C=CCc1ccc(O)c(-c2ccc(O)c(CC=C)c2)c1", "effect on": "chloride current"}
{"target": "Anoctamin-1 (ANO1, Homo sapiens, UniProt Q5XXA6, del476-501)", "assay": "whole-cell voltage clamp", "conditions": "1 µM, wild type, I-V at 60 mV, together with: 4 µM Ca2+", "normalized current": 0.57}
{"target": "TMEM16A (human) K603A/E623A", "assay": "inside-out patch clamp", "conditions": "10 µM, membrane voltage 60 mV", "normalized current": 0.374}
{"target": "Anoctamin-1 (ANO1, Homo sapiens, UniProt Q5XXA6, del476-501/K629A)", "assay": "inside-out patch clamp", "conditions": "10 µM, membrane voltage -20 mV", "normalized current": -0.099}
{"target": "Anoctamin-1 (ANO1, Homo sapiens, UniProt Q5XXA6, del476-501/F628A)", "assay": "whole-cell voltage clamp", "conditions": "1 µM, concentration-response at 100 mV, together with: 4 µM Ca2+", "normalized current": 0.918}
{"target": "Anoctamin-1 (ANO1, Homo sapiens, UniProt Q5XXA6)", "assay": "inside-out patch clamp", "conditions": "10 µM, membrane voltage 40 mV", "normalized current": 0.308}
{"target": "Anoctamin-1 (ANO1, Homo sapiens, UniProt Q5XXA6, del476-501/R429A)", "assay": "whole-cell voltage clamp", "conditions": "concentration not given", "normalized current": 0.383}
{"data": "Series 3", "organism": "Sarcocystis neurona", "effect on": "parasite growth", "concentration": "concentration not given", "notes": "second screen", "baseline": "untreated"}
{"Compound": "O=C(N[C@H](CO)[C@H](O)c1ccc([N+](=O)[O-])cc1)C(Cl)Cl", "log2 fold change": 0.095}
{"Compound": "CCN(CC)C(=O)C1(c2ccccc2)CC1CN.Cl (stereo not shown)", "log2 fold change": 0.35}
{"Compound": "CN1[C@@H](CC(=O)c2ccccc2)CCC[C@H]1C[C@H](O)c1ccccc1.Cl", "log2 fold change": 0.32}
{"Compound": "CS(=O)(=O)O.O=C(O[C@H]1C[C@H]2CC3C[C@@H](C1)N2CC3=O)c1c[nH]c2ccccc12", "log2 fold change": 0.34}
{"Compound": "CC[C@@H](CO)NCCN[C@@H](CC)CO", "log2 fold change": 0.32}
{"Compound": "CN(C)CC[C@@H](c1ccc(Br)cc1)c1ccccn1.O=C(O)/C=C\\C(=O)O (single isomer, unassigned)", "log2 fold change": 0.04}
{"Compound": "NC(=O)OCC(COC(N)=O)c1ccccc1.O", "log2 fold change": 0.33}
{"Compound": "CN1CCC(=C2c3ccccc3CCc3sccc32)CC1.O=C(O)/C=C\\C(=O)O", "log2 fold change": 0.32}
{"Compound": "COc1nc(C)nc(Cl)c1NC1=NCCN1.Cl", "log2 fold change": 0.48}
{"Compound": "O=C1c2c(O)cc(O)cc2OC(c2ccc(O)c(O)c2)C1O (stereo not shown)", "log2 fold change": 0.21}
{"data": "Series 4", "Structure (SMILES)": "O=C(Nc1cnn(-c2csc(C(=O)NC3COC3)c2)c1)Nc1c(F)cccc1Cl", "effect on": "enzyme activity", "concentration": "5 µM"}
{"target": "Macrophage colony-stimulating factor 1 receptor (CSF1R, Homo sapiens, UniProt P07333)", "how to read": "baseline: untreated control", "remaining activity": "97.4%"}
{"target": "Serine/threonine-protein kinase tousled-like 2 (TLK2, Homo sapiens, UniProt Q86UE8)", "how to read": "baseline: untreated control", "remaining activity": "106%"}
{"target": "Serine/threonine-protein kinase NLK (NLK, Homo sapiens, UniProt Q9UBE8)", "how to read": "baseline: untreated control", "remaining activity": "87.3%"}
{"target": "Mitogen-activated protein kinase kinase kinase kinase 1 (MAP4K1, Homo sapiens, UniProt Q92918)", "assay": "inhibitor", "remaining activity": "92.7%"}
{"target": "Non-receptor tyrosine-protein kinase TNK1 (TNK1, Homo sapiens, UniProt Q13470)", "assay": "inhibitor", "remaining activity": "91.5%"}
{"data": "Mixed results"}
{"Compound": "N#Cc1c(Oc2ccc(F)c(NC(=O)Cc3cccc(C(F)(F)F)c3)c2)ccc2nc(NC(=O)C3CC3)sc12", "target": "Receptor-interacting serine/threonine-protein kinase 3 (RIPK3, Homo sapiens, UniProt Q9Y572)", "assay": "kinase activity, inhibitor, ADP-Glo", "conditions": "15.62 nM, 1 h", "measurement": "inhibition", "value": "33.2%"}
